Assay results from different studies.
Each numbered part is a random draw from the data of one study; scales do not carry over between parts.

Sample 1
Target: PABPC1L2, full length, GST fusion (mouse, UniProt A0ABA7IW68)
Method: RNAcompete
Molecule type: RNA
Sample: in vitro
Concentration: 20 nM
Setting: 7-mer, probes averaged, single round
Reference: mean of 7-mers
Reading: higher = stronger binding
Target sequence (chain): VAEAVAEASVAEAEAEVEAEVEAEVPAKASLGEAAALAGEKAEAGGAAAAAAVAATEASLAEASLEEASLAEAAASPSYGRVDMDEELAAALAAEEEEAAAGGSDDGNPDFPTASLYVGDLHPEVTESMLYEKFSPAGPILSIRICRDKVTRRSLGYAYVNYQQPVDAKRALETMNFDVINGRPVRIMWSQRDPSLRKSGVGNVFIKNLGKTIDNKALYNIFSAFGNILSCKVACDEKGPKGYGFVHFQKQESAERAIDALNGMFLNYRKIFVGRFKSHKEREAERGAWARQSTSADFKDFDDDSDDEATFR
| Oligonucleotide | 7-mer Z-score |
| --- | --- |
| UGCGAUG | -0.228 |
| AGCAUGU | -0.0736 |
| CAAAUGA | 0.215 |
| ACGCGGG | 0.233 |
| GGGCGGU | 0.401 |
| CGCAGAC | -0.00833 |

Sample 2
Target: RNA binding protein fox-1 homolog 2, RRM domain, GST-SBP tag (RBFOX2, Homo sapiens, UniProt O43251-10, residues 100-194)
Method: RNA Bind-n-Seq
Molecule type: RNA
Sample: in vitro
Concentration: 365 nM
Setting: natural RNA segment, single round, ends assumed
Reference: no-protein control
Reading: higher = stronger binding
Constant ends, left off below: GGGAGUUCUACAGUCCGACGAUC … UGGAAUUCUCGGGUGCCAA
Residues (chain): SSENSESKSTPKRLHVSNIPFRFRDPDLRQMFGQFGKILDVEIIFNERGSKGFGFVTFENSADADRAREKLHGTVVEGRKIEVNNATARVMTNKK
| Oligonucleotide | RBNS enrichment (R) |
| --- | --- |
| CAUGAAAGACCCAGAGUGAUAUCCACCUCCACCACUCAGCAGUGACCUUCCUCACUUUCUCUUGUCCCGGCUGCCCCUGGGGGCCAGAGAGACCCUUGCCUUCCUUCUGC | 0.921 |
| GAGGGCUGAAUUGUUUUGCAGAGGAAGAUGGCAUCUGUGCUUUAAAUUUCUCAUUACUGGGUUAGAAAACAAAGAGGGAUUGCCCUGCACAUUUUCUUUUGUGCUUUUAA | 0.993 |
| AGAGGCCAGCCUCAAGGUGGCCAUGUCGAGGUGAGGCCAGCUUGGGCUAUCCGAGACGCUGUCAGCCAUUUUGCUCUGUUCCUGGUAGUGUGCAGACCUCGGGGUUGAGA | 0.566 |
| CUCCUGCAGACAGUGCUGCACAUCAUCCAGGUAGUCAUCAGCUACUUCCUCAUGCUCAUCUUCAUGACCUACAAUGGGUACCUAUGCAUUGCAGUAGCAGCAGGGGCUGG | 0.651 |
| GUCCAACAACUCUGUAGAGCUCUCUGCACCCUUACCCCUUUCCACCUUUUGUAUUUAAUUUUAAAGUCAGUGUACUGCAAGGAAGCUGGAUGCAAGAUAGAUACUAUAUU | 0.24 |
| GUUAAGAUGCAGGCUUUGCAUAUCACCAGGUCACUUAGAAUAUUCUAACAGUUACUCUGAAGAUGUGUCAUGAUUUGUGAGCCUUUGGAUCUGGGUAAAUAGAGGACAAA | 0.291 |
| GAUCAGCUCGUGUAAAACACACCGUCUUCUUGGCCUCCUGGCCAGUCUUUCUGCGAAUAGUCCUCUCCCUGGCCAGUUGAAUGGGGGAAGCUGCUGGCACAGGAAGGAGA | 0.586 |
| AAGCUUUUGAUGGAAAAUAUGUGGGUGGAUAGUAUAUUUCUAUGGGUGGGUCUAAUUUGGUAACGGUUUGAUUGUGCCUGGUUUUAUCACCUGUUCAGAUGAGAAGAUUU | 1.69 |

Sample 3
Target: Interferon regulatory factor 3, full length, phosphomimetic (IRF3, Homo sapiens, UniProt Q14653, residues 1-427, S386D/S396D/S398D/S402D/T404D/S405D)
Method: protein-binding microarray
Molecule type: double-stranded DNA, one strand shown
Sample: in vitro
Concentration: 2540 nM top
Setting: 60-bp whole probe
Together with: salmon DNA 0.4 mg/ml
Reference: random background probes
Reading: higher = stronger binding
Construct (chain): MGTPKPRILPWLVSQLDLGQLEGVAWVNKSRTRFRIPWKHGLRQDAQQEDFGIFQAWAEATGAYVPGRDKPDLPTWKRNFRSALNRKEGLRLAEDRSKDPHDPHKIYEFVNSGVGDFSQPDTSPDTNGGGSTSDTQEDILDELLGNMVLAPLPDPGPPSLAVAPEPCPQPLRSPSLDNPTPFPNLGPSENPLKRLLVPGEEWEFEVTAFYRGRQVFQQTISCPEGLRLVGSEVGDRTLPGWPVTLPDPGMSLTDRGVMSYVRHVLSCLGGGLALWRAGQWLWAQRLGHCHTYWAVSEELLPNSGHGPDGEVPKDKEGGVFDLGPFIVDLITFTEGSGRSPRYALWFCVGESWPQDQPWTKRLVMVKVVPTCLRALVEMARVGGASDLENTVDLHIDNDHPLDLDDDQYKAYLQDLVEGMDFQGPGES
| Oligonucleotide | fitted relative affinity [z-score] |
| --- | --- |
| GCCTAGCACTTAGATTTCAGTCTCAATTAGTGCTAGGTCTTGATTCGCTTGACGCTGCTG | 2.32 |
| GCCTAGCACCTCTGCTTGTGTCTGGGATTGTGCTAGGTCTTGATTCGCTTGACGCTGCTG | -0.521 |
| GCCTAGCACTTATGTTTCCTTATCCTTTAGTGCTAGGTCTTGATTCGCTTGACGCTGCTG | 7.24 |
| GCCTAGCACCATTTTCTCTGTTCTAGAAGGTGCTAGGTCTTGATTCGCTTGACGCTGCTG | 3.75 |

Single results of other studies
| Substance | target | assay | system | setting | scale | endpoint | value |
| --- | --- | --- | --- | --- | --- | --- | --- |
| PhoQ, residues 284 288 289 292 302 303 SLSVQF | PhoP, residues 12 14 15 18 19 AWHSL (Escherichia coli, UniProt P23836) | Sort-seq, item: YFP reporter | E. coli | PhoQ-PhoP variant library, together with: 10 µM Mg2+ | reference: high Mg2+ state, higher = stronger signaling | fold induction | 4.44 |

For quick reference, copied from above (sample 3):
| Oligonucleotide | fitted relative affinity [z-score] |
| --- | --- |
| GCCTAGCACTTATGTTTCCTTATCCTTTAGTGCTAGGTCTTGATTCGCTTGACGCTGCTG | 7.24 |
| GCCTAGCACCATTTTCTCTGTTCTAGAAGGTGCTAGGTCTTGATTCGCTTGACGCTGCTG | 3.75 |
